Assay results from different studies.
Numbered parts are unrelated; each lists some results of a single study. Substitutions count along the parent as printed.

Set 1
Target: RING finger protein unkempt homolog, zinc fingers 1-6, GST-SBP tag (UNK, Homo sapiens, UniProt Q9C0B0, residues 30-357)
Method: RNA Bind-n-Seq
Molecule type: RNA
Medium: in vitro
Tested at: not given
Setting: RNA with constant flanks, human and mouse sites, ends assumed
Relative to: input RNA pool
Direction: higher = stronger binding
Constant ends, left off below: GGGAGUUCUACAGUCCGACGAUC … CAACAGAGGAUUGAGCAUCA
Construct (chain): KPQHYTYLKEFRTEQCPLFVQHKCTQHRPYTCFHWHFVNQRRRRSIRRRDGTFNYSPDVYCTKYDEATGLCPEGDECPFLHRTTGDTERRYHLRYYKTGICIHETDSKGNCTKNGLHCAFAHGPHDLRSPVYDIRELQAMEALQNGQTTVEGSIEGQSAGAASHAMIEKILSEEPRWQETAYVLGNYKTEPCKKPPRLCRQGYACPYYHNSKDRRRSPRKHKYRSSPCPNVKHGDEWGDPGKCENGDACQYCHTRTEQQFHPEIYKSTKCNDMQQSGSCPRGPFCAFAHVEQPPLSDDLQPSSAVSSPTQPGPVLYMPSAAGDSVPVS
Oligonucleotide	bound/input enrichment [ratio]
GAGACCAAGAAGUUACCACCAAAUUCAUGUCACAAAUCUGGGCCAAGCAUCUGUGAGAAACCAACUUCUUCACAACAAAAGGUUCCCACAGAGAAGGCAAAACAUAACAAGAGUUCAGUC	0.0892
UCUAAUUCACUAUUUUCAUGUUACAUUUCUGAAAUAAUUGAACUUUAGGGGCAAGAUACUACUUACUGAAGCACAGGUAAUUACUGAGAACCCACAGCCCAGCAAAUUCUAAGAGACAGU	0.41
GCAGAAUACCCCGAUGAAUAUCAUGGCGAGUACCCAGACGACUACCCUCGGGAGUACCAGUAUGGCGACGACCAGGGCAUUGAUUAUUAGAGUCACACACAGGAGCGCAGUAUUUAGUCC	0.338
GAAGAUGAAGCCAAUAUAGCCUGGAAGUAUUACAAGUUCCCAAAGAAAAAAGAUGUAGAGUUUUUACCACCUCAACUUCCAAGUGAUAAAUUCAAGGAUGAUCCAGUUGGACCUUUUGGA	0.541
CGUGUUUUGCGCCGCACCCGAAUCGCCAAAAACUUGGAACUGGAACAAGUGACUGUCCCAAUUGGAGUUCUGCUGGUGAUCUUUGAAUCUCGUCCUGACUGUCUACCCCAGGUGGCAGCU	0.185
AGUGGCUCAGAUGACCUCUUAAUAAAAUGUGAAGAAUAUGAUGGAGAGCAUGACUGUAUGUUCUUGGAUCCACCAUACUCAAGAGUUAUUACACAAAGGGAAACAGAAAAUAACCAAAUG	0.154
GAUACUCAAUGAGGAGCUUUUUUCCCCUCUUGGAACAGGUAAAAUGCUUUUUCUUAUUAAUAUAAUUAUAAAACAGUAUUUUAUGUAACAGCUAUUCCCAUAUUCUAGGAGUGGCCUAAG	0.442
GGACGAGAGCCUCUGACCUACUAUGACAUGAACCUCUCUGCCCAGGACCACCAGACAUUCUUUACUUGUGAUUCAGAUCAUCUUCGCCCUGCAGAUGCAAUAAUGCAAAAAGCUUGGAGA	0.214
UUUUUAUUAUACAUUUAUUUUUUGUCGUUAUAUACUGGUGUGUGAUCCAAGUUAUACAUGAAUAGAAAAAGAUGGUGUUAAAUUUGUGUGUAGGCUGGGAAUUCUUGCUGAAGGAAUUGG	0.973
GCUUACAAAAUCAAAUACCCGGAGAACUUCUUUCUUCUAAGAGGAAACCAUGAGUGUGCUAGCAUCAAUCGCAUUUAUGGAUUCUACGAUGAGUGUAAACGAAGAUUUAAUAUUAAAUUG	0.249
CAUCUACUCUAACUUCAUUUGGAAGGCUUGUCUAGAGUAUAGCAUGUAUUUUUACCUUUGCAGUGAAUUGCAUGUGCUAAUUGUAACCACAGCUAUUUUUAUGUUGACAUAACUCCAAAU	0.254

Set 2
Target: Ras GTPase-activating protein-binding protein 1, RRM domain (G3BP1, Homo sapiens, UniProt Q13283)
Chain of UniProt Q13283 (whole entry, looked up): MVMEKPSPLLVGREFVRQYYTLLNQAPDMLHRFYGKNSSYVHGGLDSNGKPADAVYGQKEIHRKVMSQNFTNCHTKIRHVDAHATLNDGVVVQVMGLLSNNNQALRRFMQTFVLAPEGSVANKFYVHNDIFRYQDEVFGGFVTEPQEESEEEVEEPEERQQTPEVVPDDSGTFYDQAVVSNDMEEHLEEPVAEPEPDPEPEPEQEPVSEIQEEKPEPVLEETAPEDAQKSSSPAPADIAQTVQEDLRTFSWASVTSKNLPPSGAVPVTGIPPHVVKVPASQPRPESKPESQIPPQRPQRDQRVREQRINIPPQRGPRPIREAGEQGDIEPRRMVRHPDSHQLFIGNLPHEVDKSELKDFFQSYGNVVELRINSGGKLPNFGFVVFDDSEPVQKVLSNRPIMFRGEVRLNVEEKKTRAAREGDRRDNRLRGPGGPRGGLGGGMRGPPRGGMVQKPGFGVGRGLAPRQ
Method: RNA Bind-n-Seq
Molecule type: RNA
Medium: in vitro
Tested at: 1 µM
Setting: whole 134-nt RNA, ends assumed
With: 150 mM KCl
Relative to: input library
Direction: higher = stronger binding
Constant ends, left off below: GGGAGUUCUACAGUCCGACGAUC … UGGAAUUCUCGGGUGUCAAGG
Oligonucleotide	log2 enrichment
CCUGUGCUACACAUCGUAUGUACCGAAUCGGGUUUUUUUGGGUUUUUUUGGGUUUUUGGGAAAGUAUUAUGUUACGCCGUUCGGAUCUGC	-0.216
CACACACAACACGCACCCACACAGACACAGAGGGAAGGGGUUGGGAUGGGGACAGGGUGCACAGCAGGGCGGGGUAGGACCCCAGCCCCU	-0.0393
UCAAGUCCUGUGCUACACAUCGUAUGUACCGAAUCGGAAAGGUUUGGUUUUUGGAAAGUAUUAUGUUACGCCGUUCGGAUCUGCACUUCC	-0.218
GCAGGAAGUAAAAACAAAUGGAAAUGCUUCGGAUAGUGGCAGGGGUGGGGGUUGCUAAGGAAAGGGUGGGAUGGGAGUGGGUAACGAGUU	0.811
UCCUGUGCUACACAUCGUAUGUACCGAAUCGGGAAAAAAGGAAAAAAGGGAAAAAAGGGAAAGUAUUAUGUUACGCCGUUCGGAUCUGCA	0.163
CAAGUCCUGUGCUACACAUCGUAUGUACCGAAUCGGGGUUUGGGGUUUGGUUUGGAAAGUAUUAUGUUACGCCGUUCGGAUCUGCACUUC	-0.42
UGUGCUACACAUCGUAUGUACCGAAUCGGGGCCCCCCCGGGCCCCCCCGGGGCCCCCCCGGGGAAAGUAUUAUGUUACGCCGUUCGGAUC	-0.829
CCUCAAGUCCUGUGCUACACAUCGUAUGUACCGAAUCGGCGGGCGGGGCGGGAAAGUAUUAUGUUACGCCGUUCGGAUCUGCACUUCCAG	-0.174
UUUUAAUUUGUUUGUCUCUCAUGAAACUAUGGUCUUUUAAAAAUUAAAGGUUUUUUUUUUCCCCUUAGACGAAACUGCAAAGGAAAUCCG	-0.824
GCAGGAAGUAAAAACAAAUGGAAAUGCUUCGGAUAGUGGCAGGGGUGGGGGUUGCUAAGGAAAGGGUGGGAUGGGAGUGGGUAAAAAGUU	1.18
CUGUGCUACACAUCGUAUGUACCGAAUCGGAAAAAAAGGGAAAAAAAGGGGAAAAAAAGGGAAAGUAUUAUGUUACGCCGUUCGGAUCUG	0.173
CCUCAAGUCCUGUGCUACACAUCGUAUGUACCGAAUCGGAAGGGAAGGAAGGAAAGUAUUAUGUUACGCCGUUCGGAUCUGCACUUCCAG	-0.28
GUCCUGUGCUACACAUCGUAUGUACCGAAUCGGGAGGGUUUUUUUGGGAAAAAAAGGGAAAGUAUUAUGUUACGCCGUUCGGAUCUGCAC	0.0343
GGCAGGAGGAAGAGCGCAGGCGCCGUGAAGAAGAGAUGCGGCGGCAGCAAGAAGAAAUGAUGCGGCGACAGCAGGAAGGAUUCAAGGGAA	-0.226

Set 3
Target: RNA binding protein fox-1 homolog 2, RRM domain, GST-SBP tag (RBFOX2, Homo sapiens, UniProt O43251-10, residues 100-194)
Method: RNA Bind-n-Seq
Molecule type: RNA
Medium: in vitro
Tested at: 365 nM
Setting: natural RNA segment, single round, ends assumed
Relative to: no-protein control
Direction: higher = stronger binding
Constant ends, left off below: GGGAGUUCUACAGUCCGACGAUC … UGGAAUUCUCGGGUGCCAA
Target sequence (chain): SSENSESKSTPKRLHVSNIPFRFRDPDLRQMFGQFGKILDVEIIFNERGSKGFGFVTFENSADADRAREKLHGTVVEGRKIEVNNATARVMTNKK
Oligonucleotide	RBNS enrichment (R)
AACUCGUAUAGGUGAACAUUCUUGGAGGCUUAUCUCUUCCCUGGCCAGAUGCCUGAUCAGAUGAGAAGCCCGCCAUGAUACUGUCACAGUGCCUAGAAUGGGCUCUUUAU	0.201
UGUUUUCAUUGUUUGCAGCGGAUUACUGGACAUCAAAGAUUCAUUGCACUUAUGAACAAGGAACCUUAUUUUCAAUUUCUGUGUAAUUUUGCAAGGCUGUACAAUGUGCU	0.848
UAUUUAUUUAAAGUGGAAAUUCUAAGCCUUCCAGUAUAUACCCUUGUCAUGAGAAAAGAGGUACAUGGUGAUCCCCAAGAGAACUCAAGCCUUAUUCCUCACACACUACA	0.326
CUGAGGAAACCAUGUUCAGAAGAGAAUAAAUGGACCGCCUUCAGGCAAGGGGGGAGCACUGCCUUCAGGCAAGGGGGGAGCACUGCCUUCAGGCAAGAGGGAGAGUGGGA	0.409
GUCUUUCUCUCCUCUCCCUCCAUCCCUCAAAAGAUCUUUAUGCAUUUCCCACUACUCCCUUACUGUCUUUUAGCAUUCAGAGAAAAAGCCAACUUGCUUAAAGAGGAAUC	0.917
UGAGAGAGGGAUCUUGCAGCUGUCAUUUCUGGUCUUGUAGCCUUCAUCAGAGGCUGUUUUCCAUGAUCUGGUCCUUCCUCCAGAAAGAAGCAGGAGUUCUCAGAGGAACA	0.428
CCCAACUGGGCUUCCAGCCUUGUUGAAUGAAAUCAUCUAUCUCUGAUUGGGCGCAACGAACUGCAUUUCUUUGGACUUCUGAAUCCAUGUUUGUGCUUUCUCUGGCCCGU	0.251
UAUGUAAUGCCUAAUACUUAGUAUGUAAAUGUCACGAGAUCAUUUUUACAUUAAACGUGAAAAAAAAUCAACUUUGCCGGAUCACUUAUUUUAUACAAGAGAAUAUAUUC	0.55
AAUUUACUUGGCAUUUUAGGACAUGUACAUGAAACAGUGAAAAUGAGAUCCACCAACAUCUUUUAUUAAGUUCAGUUAUUAGUCUGUGAAGUGCUUUACUUUUUGCACAA	0.513
UAUGAACUUGUUUUUCUUAAUCUUUAAGAUGUCAGUAUUCAUGUAAAUAAACAAUAGAUCCAGCUUUUCCCUUUGACGGUGUGACUUUGAUCAAUUUACUUAAUCUGUCU	0.39
UUGUUUGGGACCUGGGUACAGGUAAAAGCCAGACUUGGCAGGGACCCCUCUUUCUAGGCUGAACCUUGAGUCCCCCUGCUUUUUGGCAGACCUAAUGGAUCACUGUCUUG	0.216
CAGACUCUGGCAGUAUUGAUGAGCCUGGCGCUGUUUGCUUUGGUGCAGCCUCCACAGUGCGCGUUCAUUUUAUCAUAUUUUGGUAUCGGUAAUUUGAUAUAUUUCAUGGU	0.278

Set 4
Target: ATF3, bZIP domain (human)
Method: DHFR protein complementation
Medium: yeast
Setting: single substitutions, most at no-binding floor
Relative to: wild-type JUN-FOS pair
Direction: higher = stronger binding
Starting sequence: JUN, bZIP domain (human); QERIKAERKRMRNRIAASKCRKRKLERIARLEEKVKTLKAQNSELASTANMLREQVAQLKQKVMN; partner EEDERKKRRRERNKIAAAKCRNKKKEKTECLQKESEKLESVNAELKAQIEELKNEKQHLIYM
Change	binding fitness [natural log]
K39M	-0.415
A46D	-0.523
I28F	-0.256
M51A	-0.0387
K34G	-0.473
A40H	-0.18
A49D	-1.33
A57T	-0.161
M51L	-0.0509
E33P	-1.25
Q55L	-0.449
K36W	-0.366
A57G	-0.22
T37N	-0.0207
Q58R	-0.248
R53L	-0.362
S43G	-0.127
S47Y	-0.146
R53I	-0.348
V56C	-0.173
L38W	-0.95

Set 5
Target: PABPC1L2, full length, GST fusion (mouse, UniProt A0ABA7IW68)
Method: RNAcompete
Molecule type: RNA
Medium: in vitro
Tested at: 20 nM
Setting: 7-mer, probes averaged, single round
Relative to: mean of 7-mers
Direction: higher = stronger binding
Target sequence (chain): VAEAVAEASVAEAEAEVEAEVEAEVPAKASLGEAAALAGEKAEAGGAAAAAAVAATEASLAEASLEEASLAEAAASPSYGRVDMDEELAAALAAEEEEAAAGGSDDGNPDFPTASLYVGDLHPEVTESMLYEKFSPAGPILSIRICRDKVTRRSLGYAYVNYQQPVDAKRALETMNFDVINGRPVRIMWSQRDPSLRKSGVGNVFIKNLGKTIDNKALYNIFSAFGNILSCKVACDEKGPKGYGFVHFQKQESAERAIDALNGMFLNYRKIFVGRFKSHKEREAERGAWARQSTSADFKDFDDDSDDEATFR
Oligonucleotide	7-mer Z-score
CUAGGGU	-0.0047
UGAGAGA	0.0334
GCGAUCU	-0.101
CUAAAAU	2.04
GACUCUU	-0.302
UGCUUGC	-0.215
GAUUAUG	-0.0391
CAGACGA	0.0895
UCAGCCG	-0.474
CGGAGAU	-0.05
UGGCGAC	-0.124
UGUAACC	-0.155
AGUGUAA	0.254
UCACAUG	-0.231
AACAUGG	0.771
UCUUCGA	-0.313
AGACGAG	0.00979
GUGGCGU	-0.0228
UACCCAG	-0.296
CAGGUAU	-0.0754
GAAGGGC	0.28
AAUACAU	0.372
GACUUGA	-0.0772
CGUGACC	-0.255

Some of these lines once more (set 5):
Oligonucleotide	7-mer Z-score
GACUCUU	-0.302
UGCUUGC	-0.215
GAUUAUG	-0.0391
CAGACGA	0.0895
UCAGCCG	-0.474
CGGAGAU	-0.05
UGGCGAC	-0.124
UGUAACC	-0.155
AGUGUAA	0.254
